# Assay results from different studies.
# Each line is one published result; not all experiments were run side by side.
SMILES,test,system,conditions,scale,measurement,value
CC(C)NC[C@@H](C(=O)N1CCN(c2ncnc3c2[C@H](C)C[C@H]3O)CC1)c1ccc(Cl)cc1,,"human, hepatic impairment Mild (Child-Pugh), plasma","oral, 100 mg single, geometric mean",,CL/F,310 L/h
Cc1cccc(C)c1OCC(=O)N[C@@H](Cc1ccccc1)[C@@H](O)C[C@H](Cc1ccccc1)NC(=O)[C@H](C(C)C)N1CCCNC1=O,,"human, HIV+/HCV+ with cirrhosis, plasma","total drug, steady state, median, added: lopinavir/ritonavir twice daily",,CL/F,1.18 mL/min/kg
CCc1cc(/C(C)=N/OCc2ccc(C3CCCCC3)c(C(F)(F)F)c2)ccc1CN1CC(C(=O)O)C1,,healthy human,"oral, 4 mg, geometric mean, added: fluconazole steady state",,CL/F,1.8 L/h
COC(=O)N[C@H](C(=O)N1CCC[C@H]1c1nc(-c2ccc(-c3ccc(-c4c[nH]c([C@@H]5CCCN5C(=O)[C@@H](NC(=O)OC)C(C)C)n4)cc3)cc2)c[nH]1)C(C)C,,human,"oral, dose not given, added: pegIFN/ribavirin",relative to: asunaprevir combination,CL/F reduction,~10%
CNC(=O)c1ccc(-c2cnc3ncc(Cc4ccc5ncccc5c4)n3n2)cc1F,,"healthy human subjects, plasma","oral, 400 mg, geometric mean, alone",,CL/F,35.4 L/h
CCCC[C@H](NC(C)=O)C(=O)N[C@H]1CCC(=O)NC[C@@H](C(=O)N[C@@H](Cc2c[nH]c3ccccc23)C(N)=O)NC(=O)[C@H](CCCNC(=N)N)NC(=O)[C@@H](Cc2ccccc2)NC(=O)[C@H](Cc2c[nH]cn2)NC1=O,,"healthy human, both sexes, plasma","subcutaneous, 1.0 mg once daily, day 1, geometric mean",,CL/F,19.6 L/h
C=C[C@@H]1C[C@]1(NC(=O)[C@@H]1C[C@@H](Oc2ncc(OC)c3ccc(Cl)cc23)CN1C(=O)[C@@H](NC(=O)OC(C)(C)C)C(C)(C)C)C(=O)NS(=O)(=O)C1CC1,,human,"oral, baseline AST 123.6 U/L",relative to: median baseline AST 52 U/L,CL/F ratio,0.6 fold
CC[C@H](C)[C@@H]1NC(=O)[C@H](CCCNC(=N)N)NC(=O)[C@H](CC(=O)O)NC(=O)[C@H](CC(C)C)NC(=O)[C@H](CCCCN)NC(=O)[C@H](CC(C)C)NC(=O)CNC(=O)[C@H](Cc2ccccc2)NC(=O)[C@@H](NC(=O)CNC(=O)[C@H](CCCCN)NC(=O)[C@H](CO)NC(=O)[C@H](CC(C)C)NC(=O)CNC(=O)[C@H](CCCCN)NC(=O)[C@H](CCCCN)NC(=O)[C@H](CC(N)=O)NC(=O)[C@H](C)NC(=O)CNC(=O)[C@H](CCCCN)NC(=O)[C@H](Cc2ccc(O)cc2)NC(=O)[C@H](CCCCN)NC(=O)[C@H](CCCNC(=N)N)NC(=O)[C@H](C)NC(=O)[C@H](CC(N)=O)NC(=O)[C@@H]2CCCN2C(=O)[C@H](Cc2c[nH]cn2)NC(=O)[C@H](CCC(=O)O)NC(=O)[C@H](CCC(N)=O)NC(=O)CNC(=O)[C@@H]2CCCN2)CSSC[C@@H](C(=O)O)NC(=O)CNC(=O)[C@H](CC(C)C)NC(=O)CNC(=O)[C@H](CO)NC(=O)[C@H](CCSC)NC(=O)[C@H](CO)NC(=O)CNC1=O,ECLA,"human, plasma","subcutaneous, 15 µg/kg once daily, day 1",,CL/F,104 mL/min/kg
